{"data": "Results gathered from unrelated publications", "note": "Every numbered part comes from another study and shows a few of its results, in no order. Substitutions count along the parent as printed."}
{"data": "Series 1", "target": "Prothrombin, mature alpha-thrombin (F2, Homo sapiens, UniProt P00734)", "technique": "aptamer microarray, sandwich", "molecule type": "DNA with 2'F-ANA", "medium": "in vitro", "tested at": "200 nM", "setting": "whole 15-mer aptamer, many near background", "with": "Cy3 exosite-II aptamer, 400 nM", "reading": "higher = stronger binding", "sequence": "GGTTGGTGTGGTTGG"}
{"Modification": "2'F-ANA at 1 2 3 5 6 7 8 9 12 13 15", "mean fluorescence intensity": "93.8 a.u."}
{"Modification": "2'F-ANA at 2 5 6 7 9 11 12 13 15", "mean fluorescence intensity": "156 a.u."}
{"Modification": "2'F-ANA at 1 2 4 5 10 11 12 14 15", "mean fluorescence intensity": "52.4 a.u."}
{"Modification": "2'F-ANA at 6 10 11 12", "mean fluorescence intensity": "352 a.u."}
{"Modification": "2'F-ANA at 4 6 7 8 9 10 13", "mean fluorescence intensity": "63.9 a.u."}
{"Modification": "2'F-ANA at 3 4 7 8 10 11 14 15", "mean fluorescence intensity": "195 a.u."}
{"Modification": "2'F-ANA at 1 2 4 5 7 8 11 13 15", "mean fluorescence intensity": "48 a.u."}
{"Modification": "2'F-ANA at 1 5 8 9", "mean fluorescence intensity": "59.2 a.u."}
{"Modification": "2'F-ANA at 1 5 6 7 8 9 10 11 14", "mean fluorescence intensity": "52.6 a.u."}
{"Modification": "2'F-ANA at 3 4 8 10 11 12 14", "mean fluorescence intensity": "209 a.u."}
{"Modification": "2'F-ANA at 1 4 5 6 9 11 12 15", "mean fluorescence intensity": "77.2 a.u."}
{"Modification": "2'F-ANA at 2 5 6 7 9 11 12 13 14", "mean fluorescence intensity": "46.3 a.u."}
{"Modification": "2'F-ANA at 2 4 6 11 12 13 14", "mean fluorescence intensity": "88.5 a.u."}
{"Modification": "2'F-ANA at 1 2 3 7 10 11 13 14", "mean fluorescence intensity": "119 a.u."}
{"Modification": "2'F-ANA at 1 2 4 9 14 15", "mean fluorescence intensity": "49.2 a.u."}
{"Modification": "2'F-ANA at 1 2 3 4 8 9 10 11 12 13 14", "mean fluorescence intensity": "56.6 a.u."}
{"Modification": "2'F-ANA at 2 3 4 7 9", "mean fluorescence intensity": "756 a.u."}
{"Modification": "2'F-ANA at 2 3 9 10 11 13 14 15", "mean fluorescence intensity": "220 a.u."}
{"Modification": "2'F-ANA at 1 2 5 6 7 10 11 12 14", "mean fluorescence intensity": "49.4 a.u."}
{"data": "Series 2", "target": "Fragile X messenger ribonucleoprotein 1, C-terminal low-complexity region (Fmr1, Mus musculus, UniProt P35922)", "technique": "RNA Bind-n-Seq", "molecule type": "RNA", "medium": "in vitro", "tested at": "200 nM", "setting": "whole 134-nt RNA, ends assumed", "with": "150 mM KCl", "reference": "input library", "reading": "higher = stronger binding", "shared flanks, not repeated": "GGGAGUUCUACAGUCCGACGAUC … UGGAAUUCUCGGGUGUCAAGG"}
{"Sequence": "GUCCUGUGCUACACAUCGUAUGUACCGAAUCGGGAAAAAAAGGGAAAGGGUUUUUGGGAAAGUAUUAUGUUACGCCGUUCGGAUCUGCAC", "log2 enrichment": -0.27}
{"Sequence": "AAGUCCUGUGCUACACAUCGUAUGUACCGAAUCGGGGAAAAGGAAAAGGAAAAGGGAAAGUAUUAUGUUACGCCGUUCGGAUCUGCACUU", "log2 enrichment": -0.378}
{"Sequence": "ACCAUGCAGGUGGGCAUCUUUGGGAAGUGGGGCAAGGGGGGGAUAGGGAGGGGGCUAACACUUUGGGAACAGGUGGUCCCAGGUCGUUUC", "log2 enrichment": 0.903}
{"Sequence": "GUCCUGUGCUACACAUCGUAUGUACCGAAUCGGGGCCCCCGGCCCCCGGGCCCCCGGGAAAGUAUUAUGUUACGCCGUUCGGAUCUGCAC", "log2 enrichment": -0.596}
{"Sequence": "GUCCUGUGCUACACAUCGUAUGUACCGAAUCGGGGAGGGGAAAAAGGGGUUUUUGGGGAAAGUAUUAUGUUACGCCGUUCGGAUCUGCAC", "log2 enrichment": 0.613}
{"Sequence": "CACAGACAACACGCACCCACACAGACACAGAGGGAAGGGGUUGGGAUAGGGACAGGGUGCACAGCAGGGCGGGGUAGGACCCCAGCCCCU", "log2 enrichment": 1.16}
{"Sequence": "UCAAGUCCUGUGCUACACAUCGUAUGUACCGAAUCGGCCCGGCCCGGCCCGGGGAAAGUAUUAUGUUACGCCGUUCGGAUCUGCACUUCC", "log2 enrichment": -0.232}
{"Sequence": "UGGCAGAGAAAUUGCAGCUGCAGGAGCAGCUCCAGGCAGAAACCGAGCUGUGUGCCGAGGCUGAGGAGCUCCGGGCCCGCCUGACCGCCA", "log2 enrichment": -0.45}
{"Sequence": "CUGUGCUACACAUCGUAUGUACCGAAUCAAACCCCCCCAAACCCCCCCAAACCCCCCCAAAAAAGUAUUAUGUUACGCCGUUCGGAUCUG", "log2 enrichment": -0.0959}
{"Sequence": "UGGGAGGUGGAUUUUGUUUAUUUUUUUAGCUCAUUUCCAGGGGUGGGAGUUUUUUUUUAAUAUGUGUCAUGAAUAAAGUUGUUUUUGAAA", "log2 enrichment": 0.48}
{"Sequence": "CCUGUGCUACACAUCGUAUGUACCGAAUCAAACCCCCCCAAAUUUUUUUAAAUUUUUAAAAAAGUAUUAUGUUACGCCGUUCGGAUCUGC", "log2 enrichment": 0.139}
{"Sequence": "UCCUCAAGUCCUGUGCUACACAUCGUAUGUACCGAAUCGGGUGGUGGUGGGAAAGUAUUAUGUUACGCCGUUCGGAUCUGCACUUCCAGC", "log2 enrichment": 0.249}
{"Sequence": "CACAGACAACACGCACCCACACAGACACAGAGGGAAGGGGUUGGGAUGGGGACAGGGUGCACAGCAGGGCGGGGUAAAACCCCAGCCCCU", "log2 enrichment": 1.42}
{"Sequence": "UGGGAGGUGGAUUUUGUUUAUUUUUUUAGCUCAUUUCCAGGGGUGGGAAUUUUUUUUUAAUAUGUGUCAUGAAUAAAGUUUUUUUUGAAA", "log2 enrichment": 0.177}
{"data": "Series 3", "target": "CCNB2, cyclin fold, Cln2 fusion (human)", "technique": "yeast growth competition, sequencing", "medium": "yeast", "setting": "weak parent motif", "reference": "not given", "reading": "higher = stronger binding", "parent": "PKN2 docking peptide (human); VSAVRKLDFSDTM"}
{"Change": "D11N", "normalised enrichment score": 0.449}
{"Change": "R5A", "normalised enrichment score": -0.00842}
{"Change": "D8A", "normalised enrichment score": 0.392}
{"Change": "R5N", "normalised enrichment score": -0.34}
{"Change": "D8T", "normalised enrichment score": -0.287}
{"Change": "V4N", "normalised enrichment score": 0.249}
{"Change": "D11K", "normalised enrichment score": 0.405}
{"Change": "A3E", "normalised enrichment score": 0.295}
{"Change": "R5D", "normalised enrichment score": -0.482}
{"Change": "S2M", "normalised enrichment score": 0.406}
{"Change": "A3S", "normalised enrichment score": 0.273}
{"Change": "T12R", "normalised enrichment score": 0.372}
{"Change": "V4G", "normalised enrichment score": -0.166}
{"Change": "A3Q", "normalised enrichment score": 0.257}
{"Change": "V4R", "normalised enrichment score": 1.73}
{"Change": "S10F", "normalised enrichment score": -0.142}
{"Change": "D8I", "normalised enrichment score": 0.205}
{"Change": "K6E", "normalised enrichment score": -0.14}
{"Change": "S10G", "normalised enrichment score": 0.599}
{"Change": "S10N", "normalised enrichment score": 0.425}
{"Change": "S10M", "normalised enrichment score": 0.215}
{"Change": "D8Y", "normalised enrichment score": 0.262}
{"Change": "A3D", "normalised enrichment score": -0.361}
{"Change": "A3G", "normalised enrichment score": -0.249}
{"Change": "D8F", "normalised enrichment score": -0.107}
{"data": "Series 4", "target": "RNA binding protein fox-1 homolog 2, RRM domain, GST-SBP tag (RBFOX2, Homo sapiens, UniProt O43251-10, residues 100-194)", "technique": "RNA Bind-n-Seq", "molecule type": "RNA", "medium": "in vitro", "tested at": "365 nM", "setting": "natural RNA segment, single round, ends assumed", "reference": "no-protein control", "reading": "higher = stronger binding", "shared flanks, not repeated": "GGGAGUUCUACAGUCCGACGAUC … UGGAAUUCUCGGGUGCCAA", "Residues (chain)": "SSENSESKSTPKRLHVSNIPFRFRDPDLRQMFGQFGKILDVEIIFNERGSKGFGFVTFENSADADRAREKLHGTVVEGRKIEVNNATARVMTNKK"}
{"Sequence": "CUGCAACUAGAACCCUGGUCGCCUUCCUCUAACUGGAGGGCAAGCCUUCCUUUUCUAGGGCCAAACUCCUCUCCAAAUACUAGGUUGGGUUCAUUUAUCUUUUAAGGAGU", "RBNS enrichment (R)": 0.411}
{"Sequence": "AGCUUCUUCACAGCCUGUUCAGCCUGGGCUCCUGGAGGACAGCCCUGGGGGAGGCAGUGAGGGGCAGCGCCAAGAUAGCCAGGUGGUUGGUUCCAGGACCACAGUGUCUU", "RBNS enrichment (R)": 0.531}
{"Sequence": "UUUGAUUCAGUAUUAACAGAUCUUGACUACACUAAUUCUUUAUAUUAUAGAACCAACGGAAAUAUGGGCACUAUUUUGAAUUCUAGAGAUGGUUUUUGUUAAAUCUACUA", "RBNS enrichment (R)": 0.429}
{"Sequence": "GGAUAGCACAACGUUUGGAGACGUGACAAAUGCUCUUACCCUUUGGAGACAAAAGUCCUAUUUUCUGUUUUCUUUUGUCUUUUGAUCUUUAAUUCACUAAUUAAUAGUGA", "RBNS enrichment (R)": 0.569}
{"Sequence": "AGGAUGGCUGUUUUCUAUGCUGUAAGUGGUCCUGUCAAUUCUGUGUUUUAUUGAGAGGGAGACAAAUGGAGCUCCAACUAUUUACUCACUUUUGCAUAUAUUAGGUUUCC", "RBNS enrichment (R)": 0.727}
{"Sequence": "CAGAUGUCUAUUUGUAUAAUUACUUGAUCUACACAGUGAGGAAAAAAAUGAAUGUAUUUCUGUUUUUGAAGAGAAUAAUUUUUUUCUCUAGGGAGAGGCGAGGUUACAGU", "RBNS enrichment (R)": 2.86}
{"Sequence": "GCGCCCCGGUGAGCGCGGGGACGAUUUUCUAACCUCGAGUGGACAGCGUCUGAGACUUGAGAACUGAGACACCGUGUUCUUCAGCACGCGUCCUGUAGCUAGAGGCUCGA", "RBNS enrichment (R)": 0.63}
{"Sequence": "CAUCUUUCAGGGCAGAAGAGCAGUGGGUUGGGGAGAGGGGUAAGGUCCAGUGGAGUGGGGGAAUGCUUCCAUUUGUUCUGCCCUCCCUUACUGCCCAGAAUGUUAGCAUA", "RBNS enrichment (R)": 1.51}
{"Sequence": "GUCCAAUUGCAGUUCUUCUUCGCAUAGAAAUGCAAUUGGAAUAUUUACAAAUCAUAAUCAACAGAGCCCCAGGGGCAAAAUAGACAUUCUAUUUGUCAGCUGUUGCUGCU", "RBNS enrichment (R)": 0.369}
{"Sequence": "CAGUAACCAUACCGAUCAAAUUCCCAGGGACAUUCUGUCAUUGCAGUAGCUCAGACCUGUCUUUUCUUGCACACCAGCUGUGCUCUUGAGAAAAUGUAAAGGCUGCCAUU", "RBNS enrichment (R)": 0.309}
{"Sequence": "GAGAAAAGAGGAAACUUGGGGGGGGCGGAGUUUCCCCCACCCAAUUACCUAGCAGGAGUCGUGGAAAGGAUGGCGUCUGAUCUGCACGAUGACACCACUGAAUGUUUAGG", "RBNS enrichment (R)": 9.74}
{"Sequence": "AAUACCAUUUGAAAUGGCAAGUCUUGGCUUAACGCCUGUUUGUAUGCCCAGCAUUCAGCUGUUUUACUCAAAGCUAGGCAUGUCAUAGUAAUUGUCUUUUCAGAUGGAAA", "RBNS enrichment (R)": 0.519}
{"data": "Single results of other studies"}
{"Molecule": "PhoQ, residues 284 288 289 292 302 303 AGHLVA", "target": "PhoP, residues 12 14 15 18 19 GQAIL (Escherichia coli, UniProt P23836)", "test": "Sort-seq, measured: YFP reporter", "test system": "E. coli", "setting": "PhoQ-PhoP variant library, with: 10 µM Mg2+", "how to read": "reference: high Mg2+ state, higher = stronger signaling", "measurement": "fold induction", "result": 7}
{"note": "Repeated from above (series 2):"}
{"Sequence": "GUCCUGUGCUACACAUCGUAUGUACCGAAUCGGGAAAAAAAGGGAAAGGGUUUUUGGGAAAGUAUUAUGUUACGCCGUUCGGAUCUGCAC", "log2 enrichment": -0.27}
{"Sequence": "AAGUCCUGUGCUACACAUCGUAUGUACCGAAUCGGGGAAAAGGAAAAGGAAAAGGGAAAGUAUUAUGUUACGCCGUUCGGAUCUGCACUU", "log2 enrichment": -0.378}
{"Sequence": "ACCAUGCAGGUGGGCAUCUUUGGGAAGUGGGGCAAGGGGGGGAUAGGGAGGGGGCUAACACUUUGGGAACAGGUGGUCCCAGGUCGUUUC", "log2 enrichment": 0.903}
{"Sequence": "GUCCUGUGCUACACAUCGUAUGUACCGAAUCGGGGCCCCCGGCCCCCGGGCCCCCGGGAAAGUAUUAUGUUACGCCGUUCGGAUCUGCAC", "log2 enrichment": -0.596}
{"Sequence": "GUCCUGUGCUACACAUCGUAUGUACCGAAUCGGGGAGGGGAAAAAGGGGUUUUUGGGGAAAGUAUUAUGUUACGCCGUUCGGAUCUGCAC", "log2 enrichment": 0.613}
